Measurements of several laboratories.
A part holds a random share of what one study measured. Substitutions count along the parent as printed.

Block 1
Target: CCND3, cyclin fold, Cln2 fusion (human)
Technique: yeast growth competition, sequencing
Medium: yeast
Setting: weak parent motif
Baseline: not given
Reading: higher = stronger binding
Measurement: normalised enrichment score
Parent: WEE1 docking peptide (human); HKTFRKLRLFDTP
EKTFRKLRLFDTP [H1E]: 0.0869
HKTFRKLRFFDTP [L9F]: 0.0813
HKTGRKLRLFDTP [F4G]: 0.134
HKTRRKLRLFDTP [F4R]: 0.125
HKTFRKLWLFDTP [R8W]: 0.2
HKTFRKLRLFDMP [T12M]: 0.187
HKTWRKLRLFDTP [F4W]: 0.221
HKTFRKLRLFDTM [P13M]: 0.308
HKTFRKLRWFDTP [L9W]: 0.123
HKTFRNLRLFDTP [K6N]: 0.256
HKTFRKLRTFDTP [L9T]: 0.0727
HKTFRKLRLFETP [D11E]: 0.0887
LKTFRKLRLFDTP [H1L]: -0.0049
HKPFRKLRLFDTP [T3P]: 0.128
HKTFRKLRLFDHP [T12H]: 0.194
HCTFRKLRLFDTP [K2C]: 0.114
HKTFRKLRLFDTR [P13R]: 0.0493
GKTFRKLRLFDTP [H1G]: 0.125
HRTFRKLRLFDTP [K2R]: 0.178

Block 2
Target: Prothrombin, mature alpha-thrombin (F2, Homo sapiens, UniProt P00734)
Technique: aptamer microarray, sandwich
Form: DNA with 2'F-ANA
Medium: in vitro
Concentration: 200 nM
Setting: whole 15-mer aptamer, many near background
Added: Cy3 exosite-II aptamer, 400 nM
Reading: higher = stronger binding
Measurement: mean fluorescence intensity
Sequence: GGTTGGTGTGGTTGG
2'F-ANA at 5 6 7 8 9 11 12 13 15: 88.2 a.u.
2'F-ANA at 2 3 4 6 7 12 13 14 15: 277 a.u.
2'F-ANA at 2 3 4 5 8 10 14 15: 78 a.u.
2'F-ANA at 1 2 3 5 6 7 8 9 10 14: 50.2 a.u.
2'F-ANA at 1 2 3 4 12 13: 254 a.u.
2'F-ANA at 1 2 5 7 11 12: 88.9 a.u.
2'F-ANA at 7 8 9 10 13 15: 195 a.u.
2'F-ANA at 2 5 8 9 11 12 13: 133 a.u.
2'F-ANA at 5 7 8 9 11 13 14 15: 53.7 a.u.
2'F-ANA at 1 2 3 8: 408 a.u.
2'F-ANA at 1 2 3 7 8 10 11 12: 137 a.u.
2'F-ANA at 1 2 3 4 5 6 9 14: 63.9 a.u.
2'F-ANA at 1 3 5 7 8 9 10 12 13 15: 57.7 a.u.
2'F-ANA at 2 3 5 7 8 10 11 12 15: 59.3 a.u.
2'F-ANA at 1 5 6 7 9: 58.1 a.u.
2'F-ANA at 5 7 9 12 15: 159 a.u.
2'F-ANA at 4 5 6 9 11 13 14 15: 47.4 a.u.
2'F-ANA at 1 2 3 4 5 6 8 9 10 11 12: 52 a.u.
2'F-ANA at 2 3 5 6 8 9 10 11 13 14: 75.7 a.u.
2'F-ANA at 4 8 9 12 13 14 15: 94.3 a.u.
2'F-ANA at 2 4 6 7 8 10 11 12 15: 98.8 a.u.
2'F-ANA at 1 3 7 9 10 11 13 15: 79.5 a.u.
2'F-ANA at 1 2 4 5 8 10 11 15: 47 a.u.
2'F-ANA at 2 3 4 6 10 11 12 13 14 15: 149 a.u.
2'F-ANA at 1 4 11 12 13 14 15: 56 a.u.

Block 3
Target: RING finger protein unkempt homolog, zinc fingers 1-6, GST-SBP tag (UNK, Homo sapiens, UniProt Q9C0B0, residues 30-357)
Chain of UniProt Q9C0B0 (30-357, looked up): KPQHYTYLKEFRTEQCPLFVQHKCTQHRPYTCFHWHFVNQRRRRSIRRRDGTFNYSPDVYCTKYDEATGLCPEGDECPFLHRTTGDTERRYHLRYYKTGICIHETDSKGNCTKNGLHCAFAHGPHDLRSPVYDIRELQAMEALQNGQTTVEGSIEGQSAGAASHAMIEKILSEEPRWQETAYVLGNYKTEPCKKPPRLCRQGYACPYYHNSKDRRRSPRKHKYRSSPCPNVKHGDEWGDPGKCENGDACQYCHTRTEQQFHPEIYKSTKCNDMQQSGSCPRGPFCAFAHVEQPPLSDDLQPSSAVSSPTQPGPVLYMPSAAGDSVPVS
Technique: RNA Bind-n-Seq
Form: RNA
Medium: in vitro
Concentration: not given
Setting: RNA with constant flanks, human-mouse chimeric sites, ends assumed
Baseline: input RNA pool
Reading: higher = stronger binding
Measurement: bound/input enrichment
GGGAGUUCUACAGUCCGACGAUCUCUGAGGUACCACUGAAGAGACCUUAAAAGAAUCAUUUGAGGGCUCUGUUCGUGCAAAGGAUAGUUAUGAUCGGGAAACUGGUUCUUCCAAAGGGUUUGGUUUUGUAGACUUUAAUAGUGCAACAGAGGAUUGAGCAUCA: 0.95 ratio
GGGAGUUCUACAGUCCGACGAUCAUCAAAUAUUUUGGGGACAUCAUUAGUGUGGGACAGAGACUGUUGCAAGGAGCUCGGAUUUUAGGAAUUCCAGUUAUCAUAACGGAACAAUACCCCAAAGGACUUGGCAGCACCGUUCAACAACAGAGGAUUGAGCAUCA: 0.434 ratio
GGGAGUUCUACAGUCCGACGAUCGGCUGCUGGUGACUGUCCUGGAGUGGCUGGAGUUCCCGCCGGAGCGCGCGCAGGUUAAUUUUAGAAAAUGCCAAGUAGGAAAUUUGCUGAGGGUGAAGUGGUCAGAGGCCGAUGGCCUGGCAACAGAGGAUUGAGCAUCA: 4.2 ratio
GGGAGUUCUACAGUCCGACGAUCGUAUACGGUUAUCGAGGAAAGGACUGUAGAGCGAAUGUAUACCUGCUUCCCACAGGGGAGAUAGUUUAUUUCAUUGCCUCAGUGGUAGUCCUGUUUAAUUAUGAGGAGAGAACUCAGCGACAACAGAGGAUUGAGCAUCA: 1.34 ratio
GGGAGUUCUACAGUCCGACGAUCUCUUUAAAAAAAAAAUUACCUUUUCUGACAGUGCUUUCCCUCCCAUAGGUCCAGGUUCAAGCUCAAAGAGCAAAGGCUUUGCACGGAGCUCAAACAUCUGAUGAAGAAAGAUUUCUGAGACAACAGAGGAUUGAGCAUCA: 0.549 ratio
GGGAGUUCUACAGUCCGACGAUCAAAGAACUACUGAGGCAAGGCAGCAAAUUUAGGAGAGAUGUAUCAACAAUAUUGAUAGAGUUAGGAUUCCAAAUUAAAAAGAAAACUAAGACAUUAUACAUCAACAAAGCCAAUGUGUGGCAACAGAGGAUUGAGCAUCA: 5.09 ratio
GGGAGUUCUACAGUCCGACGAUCGCGGCAGAAUCAUGGUGGACAUAAUGCAGCUCCCCAAAGCGCGCGUCAACGCCAGCAUGUUACCACAAUUCAUCGACCGGCCCGUGUGCUUCGUGGGGAAGCUGGAAAAGAUUCAUCCCACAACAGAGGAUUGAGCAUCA: 0.104 ratio
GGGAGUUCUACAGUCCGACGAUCUAAAUUAGGGCUGCCGUUUUCUGUUUCUCCCUGGGCUGCGGAAAGCCAGGCGGUUUUAUCUAGCUUAUACAAGGCUGCUGGAGCUUGCUCUUUUUUUCCACGAGGGUGUUUUUGGCUGCACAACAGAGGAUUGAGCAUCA: 0.843 ratio
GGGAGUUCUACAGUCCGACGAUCGUGACUGGUGUUAAGAUUUCCCCUCAGAAAAGAACUGCAGUAGUCACCAUAAUUCCAUCUGUGGUGAGUGCCAGUCAGAUUGUGGAGCUGGUUCCAGACCUCAGUUUAGACAUGGGAACUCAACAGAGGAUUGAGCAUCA: 0.208 ratio
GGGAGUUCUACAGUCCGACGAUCGCGGCAGAAUCAUGGUGGACAUAAUGCAGCUCCCCAAAGCGCGCGUCAACGCCAGCAUGUUACCACAGUAUAUCGACAAGCCUGUCUGCUUCGUGGGGAAGCUGGAAAAGAUUCAUCCCACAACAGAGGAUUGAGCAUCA: 0.123 ratio
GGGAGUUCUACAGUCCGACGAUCUCCCAAAUCCAGCAGCUAGAAGGAGCCUUGAGACAAACACUCCACACGCAGGGAGGGCGAUAACAUUGUAAAUUGGUUUACAUUUUUUCCCCCUGUGGAUUUUUCUAGAGGUCAUAGUGCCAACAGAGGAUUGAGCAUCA: 0.417 ratio

Block 4
Target: Centromere-binding protein 1, full length, His-tagged (CBF1, Saccharomyces cerevisiae, UniProt P17106, residues 1-351)
Chain of UniProt P17106 (whole entry, looked up): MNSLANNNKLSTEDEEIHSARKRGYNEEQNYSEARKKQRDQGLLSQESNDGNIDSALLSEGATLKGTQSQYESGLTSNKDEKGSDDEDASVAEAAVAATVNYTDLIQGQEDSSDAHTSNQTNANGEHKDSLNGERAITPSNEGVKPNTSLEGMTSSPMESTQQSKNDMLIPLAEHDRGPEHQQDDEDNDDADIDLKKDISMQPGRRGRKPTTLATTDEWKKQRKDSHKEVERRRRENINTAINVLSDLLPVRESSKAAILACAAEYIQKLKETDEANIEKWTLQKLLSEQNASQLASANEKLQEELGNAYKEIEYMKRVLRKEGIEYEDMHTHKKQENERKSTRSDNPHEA
Technique: competition protein-binding microarray
Form: double-stranded DNA, one strand shown
Medium: in vitro
Concentration: 2 µM
Setting: whole 60-bp probe, lowest competitor level
Added: Pho4 competitor, 0.05 µM
Reading: higher = stronger binding
Measurement: fluorescence intensity
ACTTGGCGTTGGTCCAACGTGGAATTTCAACAACCAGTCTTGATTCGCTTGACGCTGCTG: 69.6 a.u.
CGGGGTTAAGTTTGTGTGGTGGGTGGCTTGCAGCAGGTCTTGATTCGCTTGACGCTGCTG: 70.5 a.u.
TCGCTTCCATTGCTGCCCGTGAAACTGCAAAGGCCAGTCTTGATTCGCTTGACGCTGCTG: 64.1 a.u.
AAAGCGGTAATTTGACCCGTGGGTGCAGATATCTATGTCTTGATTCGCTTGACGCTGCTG: 89.1 a.u.
TTATTCAAATGAAATACAATTCTTTTCAAAGTTTGGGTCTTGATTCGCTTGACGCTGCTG: 77.9 a.u.
CGGGGTTAAGTTTGGTCCGTGGGTGGCTTGCAGCAGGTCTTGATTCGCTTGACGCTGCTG: 73.1 a.u.
CTTTCCCGATCTTGGGGAGTGGGTGTAGCACATTTGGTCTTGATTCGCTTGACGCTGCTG: 65.4 a.u.
AAGAAATATTGCCAACACGTGAGATTGAAAAAGCAAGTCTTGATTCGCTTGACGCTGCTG: 1760 a.u.
CCCACTTGTCTTCGATGCGTGCTTTTGCCAATCAACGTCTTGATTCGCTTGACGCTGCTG: 87.2 a.u.
CGGGGTTAAGTTTGCTCAGTGGGTGGCTTGCAGCAGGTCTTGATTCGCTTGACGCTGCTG: 69.8 a.u.
CATACCCAACCTTGTGTCGTGGGTGAAGATATTTGTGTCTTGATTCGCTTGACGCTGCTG: 68.5 a.u.
CTTTCCCGATCTTCCCACGTGTTTTTAGCACATTTGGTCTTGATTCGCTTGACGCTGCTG: 644 a.u.
TTTCAGGTTCTTGTACACGTGGAACCGCCCGATATAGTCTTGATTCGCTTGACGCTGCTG: 733 a.u.
CGGGGTTAAGTTTTTCACGTGGGCTGCTTGCAGCAGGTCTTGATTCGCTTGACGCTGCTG: 548 a.u.
TTGAGCTTGAAAGAGTGCGTGCAAATCATTCAATCAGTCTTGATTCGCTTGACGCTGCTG: 96.7 a.u.
CTGTCCAACGCCTGCAGCGTGGATGTGGAGGCGGACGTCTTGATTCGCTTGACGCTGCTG: 58.1 a.u.
TGAAGACTTTGCATCTACGTGTCGGACAAGCTGCCCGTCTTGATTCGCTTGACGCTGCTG: 65.3 a.u.
TTTCTTGGAATTTTTCACATGTTTGCAGTGAATAAAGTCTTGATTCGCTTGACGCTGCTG: 138 a.u.
CTTTTCAAGAATGCAAACGTGAGGTTGGCGCGCCCTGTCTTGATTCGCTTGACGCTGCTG: 73.3 a.u.
CGTCCTAGTGATTTTCACGTGTACTCCATGAGGAAGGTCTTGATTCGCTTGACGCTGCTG: 935 a.u.
TAATACGGGCATGAACGCGTGCAAACAACTCGTCCTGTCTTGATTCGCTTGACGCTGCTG: 86 a.u.
AGGCCAGTTGCTCAACACGCTACAAGAAGGCAGATGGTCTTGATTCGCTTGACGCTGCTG: 78.8 a.u.
TGCGCAACAACTTTTCACGTGAGTTTATGTCTAGAAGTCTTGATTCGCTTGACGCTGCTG: 1060 a.u.
GGATAGGGTCTTTGGCATGTGCGGTGCTTACCCGGAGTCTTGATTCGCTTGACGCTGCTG: 79.1 a.u.
CTTCTGTAAATTTGTATTGTGGGTGGACGCGCCCCGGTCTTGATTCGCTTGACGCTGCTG: 93.3 a.u.
